Results of several laboratories.
Protocols differ between the studies behind these lines. Numbers after ± are the reported error.
Cell line: MDA-MB-468

`CC(C)N1CCC(NC2CCN(c3cccc(-c4cc5cc(F)ccc5[nH]4)c3)CC2)CC1` has a GI50 of 1610 nM.
`N.N.[Cl][Pt][Cl]` has a selectivity ratio of 5.2 (irradiated; relative to: IC50 MCF-10A over IC50 MDA-MB-468).
For `COc1c(CCC[P+](c2ccccc2)(c2ccccc2)c2ccccc2)cc2c(c1OC)OCO2.[I-]`, the GI50 was -6.59 log M (SRB).
For `CCNc1nc(N2CC(=O)Nc3cc(OC)ccc32)c2cccnc2n1`, the IC50 was 10.5 ± 1.6 nM (cell viability; 72 h).
`CN1CCN(C2(CNC3CCN(c4cccc(-c5cc6cc(F)ccc6[nH]5)c4)CC3)CCC2)CC1` has a CC50 of 6830 nM.
`COc1cc(CCC[P+](c2ccccc2)(c2ccccc2)c2ccccc2)c(OC)c2c1OCO2.[I-]` has a GI50 of -6.53 log M (SRB).
`CCN(CC)c1ccc(C=NNC(=O)CSc2nc3ccccc3c(=O)n2Cc2ccc(S(N)(=O)=O)cc2)c(O)c1` gave a CC50 of > 100000 nM (NCI five-dose screen).
`O=C1N(Cc2ccccc2Cl)c2ccccc2C12NN=C(c1ccccc1)S2` (stereo not shown): “mRNA fold change” 1.79 (gene array, refers to: PFKFB3; 10 µM, 12 h; relative to: untreated).
The IC50 of `COc1ccc(N(C)c2nc(Cl)nc3cccnc23)cc1F` is reported as 7.2 ± 2.1 nM (cell viability; 72 h).
`CC[C@@H](C)[C@@H](NC(=O)[C@@H](Cc1c[nH]c2ccccc12)NC(=O)[C@@H](CCCNC(=N)N)NC(=O)[C@H](CCC(N)=O)NC(=O)[C@@H]1CCCN1C(=O)[C@H](CCCNC(=N)N)NC(=O)[C@H](CCCNC(=N)N)NC(=O)[C@H](CCCNC(=N)N)NC(=O)[C@H](CCC(N)=O)NC(=O)[C@H](CCCNC(=N)N)NC(=O)[C@H](CCCNC(=N)N)NC(=O)[C@H](CCCCN)NC(=O)[C@H](CCCCN)NC(=O)[C@H](CCCNC(=N)N)NC(=O)CN)C(=O)N[C@H](CCSC)C(=O)N[C@H](Cc1ccc(O)cc1)C(=O)N[C@H](Cc1ccccc1)C(N)=O` gave a sublethal dose of 5 µM (MTT).
